Experimental data gathered from unrelated publications.
Parts stem from different laboratories: compare values within a part only. Substitutions count along the parent as printed.

Block 1 — target: CCNE1, cyclin fold, Cln2 fusion (human); technique: yeast growth competition, sequencing; sample: yeast; setting: weak parent motif; reference: not given; reading: higher = stronger binding
Starting sequence: DOT1L docking peptide (human); SEAKRRIVFTITT
Variant | normalised enrichment score
R6A | 0.277
V8A | 0.172
E2A | 0.727
I7A | 0.334
T12A | 0.713
K4A | 0.705

Block 2 — technique: DNA-protein interaction ELISA; form: double-stranded DNA, one strand shown; sample: in vitro, bacterial lysate; concentration: not given; setting: whole dsDNA probe, crude lysate protein; reference: highest signal in screen; reading: higher = stronger binding
Target: Probable WRKY transcription factor 50, DNA-binding domain (WRKY50, Arabidopsis thaliana, UniProt Q8VWQ5, residues 99-173)
Construct (chain): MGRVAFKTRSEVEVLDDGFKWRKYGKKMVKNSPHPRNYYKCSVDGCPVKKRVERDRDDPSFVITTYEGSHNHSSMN
Oligonucleotide | relative absorbance
AAAAAACTTCTAGTTTATGCTTCCGTAAAA | 45.7 % of maximum
AAAAAATACTGGCTGTCTCGTTCACAAAAA | 11.3 % of maximum
AAAAAACCTACGATGGTTCTGATCTTAAAA | 14.7 % of maximum
AAAAAATCATCTCTATGTTATTGTTGAAAA | 12.7 % of maximum
AAAAAATCGGTACGCACCCCGGACTCAAAA | 19.4 % of maximum
AAAAAAGCGGTAGATGCGCAACTGTGAAAA | 14 % of maximum
AAAAAACGCAACTCCGGATGTGGGGTAAAA | 14.9 % of maximum
AAAAAACCTCTTGTCTCTGCTCTCCCAAAA | 26 % of maximum
AAAAAAGGCGGTCGTAGTTGTGGGAGAAAA | 18.4 % of maximum
AAAAAAATGTTCAAGCTCGATCTACAAAAA | 11.8 % of maximum
AAAAAAATTACGCGGGATCGCCAAAA | 15.2 % of maximum
AAAAAAGTGCACGACCCATTTATATAAAAA | 38.8 % of maximum
AAAAAACTGCTTGCCCCTGTCTCCATAAAA | 32.8 % of maximum

Block 3 — technique: RNA Bind-n-Seq; form: RNA; sample: in vitro; concentration: 200 nM; setting: whole 134-nt RNA, ends assumed; with: 150 mM LiCl; reference: input library; reading: higher = stronger binding; each molecule: 7-deaza-guanosine replaces G
Target: Fragile X messenger ribonucleoprotein 1, C-terminal low-complexity region (Fmr1, Mus musculus, UniProt P35922)
Oligonucleotide | log2 enrichment
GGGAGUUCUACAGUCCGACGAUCAGUCCUGUGCUACACAUCGUAUGUACCGAAUCGGGCCCCGGGGCCCCGGGCCCCGGGGAAAGUAUUAUGUUACGCCGUUCGGAUCUGCACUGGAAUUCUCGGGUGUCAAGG | -1.85
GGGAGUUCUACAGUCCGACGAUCAAGUCCUGUGCUACACAUCGUAUGUACCGAAUCGGGGAAAGGGGAAAGGGAAAGGGGAAAGUAUUAUGUUACGCCGUUCGGAUCUGCACUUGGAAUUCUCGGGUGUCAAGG | 1
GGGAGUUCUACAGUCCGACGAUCUGGAUGGACACCAUUAUCGUCGUGUGGCACGGGUUGACCUAAGGAAGAAGACAGAGACUUUCUCCACAAGAAGGGUUAAGUCUGGGCUGUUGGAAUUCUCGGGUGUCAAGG | -0.524
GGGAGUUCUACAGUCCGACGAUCUUAGGGAUGUGGCCAUAGAAUUCUCUCAGGAGGAGUGGAAAUGCCUGGACCCUGCUCAGAGGAUCUUAUACAGGGACGUGAUGUUGGAGAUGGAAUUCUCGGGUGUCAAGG | 0.146
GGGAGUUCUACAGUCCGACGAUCCAAUGGGAAUGGACCAAAGAGUUUCAGGGAAACUCCAGUAUAUUCCAGAGUCAGAUCUAAGCUCCAGGCACGCCUGAAGAUGUGUUGCUAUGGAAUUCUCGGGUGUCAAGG | -0.292
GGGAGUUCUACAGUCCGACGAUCACCAUGCAGGUGGGCAUCUUUGGGAAGUGGGGCAAGGGGGGGAUAGGGAGGGGGGUAACACUUUGGAAACAGGUGGUCCCAGGUCGUUUCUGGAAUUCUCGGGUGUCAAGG | 1.38
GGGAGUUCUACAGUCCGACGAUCAGUCCUGUGCUACACAUCGUAUGUACCGAAUCGGGCCCCGGGCCCCGGGGCCCCGGGGAAAGUAUUAUGUUACGCCGUUCGGAUCUGCACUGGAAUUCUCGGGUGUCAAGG | -2.61
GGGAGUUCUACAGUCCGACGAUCCUCAAGUCCUGUGCUACACAUCGUAUGUACCGAAUCGGGUGGGUUUGGGAGGGAAAGUAUUAUGUUACGCCGUUCGGAUCUGCACUUCCAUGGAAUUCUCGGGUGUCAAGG | 0.08
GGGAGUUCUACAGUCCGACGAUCCUCAAGUCCUGUGCUACACAUCGUAUGUACCGAAUCGGGGUUGGUUGGGUUGGGAAAGUAUUAUGUUACGCCGUUCGGAUCUGCACUUCCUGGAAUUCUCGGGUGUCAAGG | -0.676
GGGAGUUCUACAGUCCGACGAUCACCAUGCAGGUGGGCAUCUUUGGGAAGUGGGGCAAUGGGGGGAUAGGGAGGGGGGUAACACUUUGGGAACAGGUGGUCCCAGGUCGUUUCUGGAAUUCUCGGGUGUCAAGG | 1.3
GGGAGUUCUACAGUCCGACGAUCGCACGAAGUAAAAACAAAUGGAAAUGCUUCGGAUAGUGGCAGGGGUGGGGGUUGCUAAGGAAAGGGUGGGAUGGGAGUGGGUAAAGAGUUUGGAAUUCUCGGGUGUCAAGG | 1.23

Block 4 — technique: RNA Bind-n-Seq; form: RNA; sample: in vitro; concentration: 365 nM; reference: no-protein control; reading: higher = stronger binding
Target: RNA binding protein fox-1 homolog 2, RRM domain, GST-SBP tag (RBFOX2, Homo sapiens, UniProt O43251-10, residues 100-194)
Setting: natural RNA segment, single round, ends assumed
Construct (chain): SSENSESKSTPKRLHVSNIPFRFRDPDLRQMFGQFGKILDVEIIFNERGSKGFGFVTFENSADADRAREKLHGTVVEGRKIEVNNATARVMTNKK
Oligonucleotide | RBNS enrichment (R)
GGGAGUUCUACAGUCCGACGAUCGUAACUCUUGAUGGCAUUUCCCUUCUGAGUGAAGAUUUGAAAUAUGAUUGAUUAGAAUUGUGCUCUUGAUGGCUGGGAAUUUAGAAAUUUUAUUUUAAGAGUUAUUUCAUUGGAAUUCUCGGGUGCCAA | 0.641
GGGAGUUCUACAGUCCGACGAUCCCCAAAUGCCUAACAGUGCAGUCAUUUCUCAAUAAAUACAUUUUAAAUAAAUGAACAAAUUCUGCCGAAACUCAGUUCUGAGUCUGUUUAACCGAAUUCAUUCAAAACGUUGGAAUUCUCGGGUGCCAA | 0.66
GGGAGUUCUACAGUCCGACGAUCUGUGUGGAAAGAAAACAGAAGUGAGAAAGAAGUUACCUUGUAUUAUGUAUUUUUACUACACUUUUCUUAAAAAUGGAGCAGUGGGAAAACUCUGAAAGAGAUUGACAUUUUGGAAUUCUCGGGUGCCAA | 0.503
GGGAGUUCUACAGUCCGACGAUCAUGGUCCUGGGGAUGCCACCUGCUUCUAUGCUUUAUGCAUCAGGAUACUCUCAGGACGUGAGUGUUCACAAGACACGUUUCCCAAAAAAUGCAAAGGUUUCACUGAAAAUUGGAAUUCUCGGGUGCCAA | 0.41
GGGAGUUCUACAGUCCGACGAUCUCCCCCAGAAAUCACUCUCCUGUUUACUAUUCCAGAGCUCUAGUUGUAGGCAGCGUGUGGCGUCUCAGAGGCCAGAGCGGCACUAGGGGGCUGAUUUUAUUACCAGGUUAUGGAAUUCUCGGGUGCCAA | 0.676
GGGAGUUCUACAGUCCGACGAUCAGGGGAGGGCAGGCUUGGGGAAAAUGGCCAUGCAGGAGGUGGAGAAAAUUGGAACUCUACUCAACCCAUUGUUGUCAAGGAAGAAGAAAUCUUUCUCCCUCAACUGAAGGUGGAAUUCUCGGGUGCCAA | 0.655
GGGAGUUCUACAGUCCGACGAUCCAGCAGUGGCAAGUCAAGGGAAGCCAGUCUUCAGUGUAAGGACCCGCAGUGGCUAUCCUAGUGUACAUUCUCCUGGAGAGCAGCUUCUGUGGCUGAAUCAGGUGUCCAGGUGGAAUUCUCGGGUGCCAA | 0.22
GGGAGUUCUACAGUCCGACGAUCCCCACCGUUGAGGCUAUCUGAAGUGUAUUGUAUGAAGGAAGUAUCAAGAACAAAUCAUUGGCCCGUUAUAGCAAAUAGUUGCUUAAGUAGCAGUUGUCAUAGACUAAUCAUGGAAUUCUCGGGUGCCAA | 0.704
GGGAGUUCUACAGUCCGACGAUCGUGGGCUUCCUCUCUGCCCCAGAUCUCUCCUUCCUCUCUCUUCCUUCCACUCCCGCCCCUUCUCUUGCAGCCAAGUCAGACUCCAAGAGGCCCCACUGAGCUGCCCUCUCUGGAAUUCUCGGGUGCCAA | 0.778
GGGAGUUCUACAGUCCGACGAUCUGAGUCAUUCUGUCCAUUCCUCCACCAGCUCCUGGGCACCACCUGAGAAACCGUGCUCUCUAAGUUUGUUCUCUGCUUUGACCCCACUUUUAUAGCUGUCUUUGCAUCUUUGGAAUUCUCGGGUGCCAA | 1.34
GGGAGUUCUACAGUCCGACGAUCAGGAAAAGUUGAGGGGGACUUAGGAAUAAUUUCCUUAUAAAAAGGAGCCUUAUUCUGUACCCCACUUUCCUCUUUUUAAUGGUACACGGUGGUGAUAUUUUUCAUCCCCAUGGAAUUCUCGGGUGCCAA | 0.254
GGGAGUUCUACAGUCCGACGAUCAUAUAAACUUGGAAAGGCAUUUAGCCUUGAUUUGUUAAAUCCUAAGGAUUUCCUGUAAGGUUUUUUGCAACCUAUUUAGUUUUUGUCAUUUAAAAUGCCUAACUUCUUAGUGGAAUUCUCGGGUGCCAA | 0.522

Block 5 — technique: universal PBM; form: double-stranded DNA, one strand shown; sample: in vitro; concentration: 600 nM; reading: higher = stronger binding
Target: Sal-like protein 4, full length isoform A (SALL4, Homo sapiens, UniProt Q9UJQ4, residues 1-1053)
Chain of UniProt Q9UJQ4 (whole entry, looked up): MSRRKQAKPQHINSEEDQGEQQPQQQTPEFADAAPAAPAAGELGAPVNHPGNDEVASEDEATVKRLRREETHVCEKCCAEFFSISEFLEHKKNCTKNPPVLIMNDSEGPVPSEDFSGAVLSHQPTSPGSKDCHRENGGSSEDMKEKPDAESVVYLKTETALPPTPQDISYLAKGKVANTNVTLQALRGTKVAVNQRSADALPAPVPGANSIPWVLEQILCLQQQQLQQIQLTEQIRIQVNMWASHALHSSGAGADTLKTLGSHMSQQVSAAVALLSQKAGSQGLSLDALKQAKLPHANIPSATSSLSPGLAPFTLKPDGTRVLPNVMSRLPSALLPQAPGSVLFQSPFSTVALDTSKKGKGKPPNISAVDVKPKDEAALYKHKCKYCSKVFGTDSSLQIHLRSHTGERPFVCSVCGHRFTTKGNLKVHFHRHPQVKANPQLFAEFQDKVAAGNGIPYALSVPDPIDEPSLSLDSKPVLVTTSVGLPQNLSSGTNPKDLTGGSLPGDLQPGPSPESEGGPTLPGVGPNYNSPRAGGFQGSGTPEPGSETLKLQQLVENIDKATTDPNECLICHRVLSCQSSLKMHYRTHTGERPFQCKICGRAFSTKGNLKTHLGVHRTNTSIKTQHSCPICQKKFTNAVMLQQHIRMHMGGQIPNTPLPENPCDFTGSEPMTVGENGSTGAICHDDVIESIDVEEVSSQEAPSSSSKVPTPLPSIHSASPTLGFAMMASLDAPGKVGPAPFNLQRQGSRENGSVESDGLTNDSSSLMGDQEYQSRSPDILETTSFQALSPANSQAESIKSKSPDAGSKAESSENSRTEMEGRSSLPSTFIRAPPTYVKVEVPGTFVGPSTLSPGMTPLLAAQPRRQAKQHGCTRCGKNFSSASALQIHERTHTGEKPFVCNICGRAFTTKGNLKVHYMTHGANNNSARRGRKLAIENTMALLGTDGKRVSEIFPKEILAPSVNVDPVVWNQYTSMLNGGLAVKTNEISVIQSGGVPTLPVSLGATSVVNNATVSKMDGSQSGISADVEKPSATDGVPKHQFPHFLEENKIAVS
Setting: 8-mer, flanks averaged, mean of replicates
Oligonucleotide | E-score
CGCCACAA | -0.118
ACTAGATC | 0.0479
AGACGCGC | -0.252
GCAATACA | 0.159
CAAGGCCC | -0.291
ATTGAGGA | 0.144
ACGTCTCG | -0.0532
ATGAGTTG | 0.027
GCCGCTCA | -0.24
ACTCGGCT | -0.261
CCAGACCG | -0.306
AGTTATTA | 0.437
CACTTTCG | 0.167
ACAGGATG | 0.0278
GAAAACAC | -0.0426
AGAGGGTC | -0.234
AATCCAGG | -0.119
AAGGATCT | -0.035
CAAGATAA | 0.22
GAAGTAGA | 0.105
CCGCCACA | -0.275
GCCGTAGA | -0.164
CTAGGCTA | -0.116
CAAGACCA | -0.11

Block 6 — technique: protein binding microarray; form: double-stranded DNA, one strand shown; sample: in vitro; concentration: not given; reference: not given; reading: higher = stronger binding
Target: Histone acetyltransferase KAT6A, winged helix 2, GST fusion (KAT6A, Homo sapiens, UniProt Q92794, residues 85-181)
Setting: 8-mer, flanks averaged, mean of 2 arrays, mostly near background
Residues (chain): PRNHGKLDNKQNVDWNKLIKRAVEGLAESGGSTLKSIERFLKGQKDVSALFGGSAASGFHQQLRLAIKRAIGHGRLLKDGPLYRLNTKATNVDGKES
Oligonucleotide | E-score
ATTGTTCA | 0.0976
CTAGATAA | 0.026
CACGGTCG | -0.00384
CATATAGC | 0.0164
AAAAGAAA | 0.0502
GGGGCGTA | -0.0156
AGGCCCCT | -0.0779
CATCTAGG | -0.146
TCGCGAAA | -0.0315
GCAGCGCA | 0.195
CCCGCGTA | 0.0371
CACGCATC | 0.189
ATGCCTTA | -0.227
CGGTGCCC | 0.179
GGTCTCAA | -0.0891
ATGAGCAT | -0.00691
TAGCGTGA | -0.176
ACTGACAA | -0.0102
ACTGCAGA | 0.0384
AGGTGGCA | 0.0846
CTGATTTC | 0.101
AGAGAGTA | -0.14
